Published values of several laboratories.
Compare with care: the assays were run in different laboratories. Numbers after ± are the reported error.
CBF1: CBF1 1-351 (Saccharomyces cerevisiae, UniProt P17106)
UniProt P17106, sequence (whole entry, looked up): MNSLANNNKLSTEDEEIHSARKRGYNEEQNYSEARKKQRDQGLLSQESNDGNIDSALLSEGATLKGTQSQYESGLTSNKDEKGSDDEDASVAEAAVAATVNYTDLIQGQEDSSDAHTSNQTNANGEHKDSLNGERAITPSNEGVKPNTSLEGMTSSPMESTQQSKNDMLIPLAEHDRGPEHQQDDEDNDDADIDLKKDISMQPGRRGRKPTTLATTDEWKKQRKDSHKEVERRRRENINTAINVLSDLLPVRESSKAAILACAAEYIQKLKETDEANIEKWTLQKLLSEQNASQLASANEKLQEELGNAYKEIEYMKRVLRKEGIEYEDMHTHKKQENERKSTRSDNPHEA
nac full length assumed: nac full length assumed (Escherichia coli, UniProt Q47005)
UniProt Q47005, sequence (whole entry, looked up): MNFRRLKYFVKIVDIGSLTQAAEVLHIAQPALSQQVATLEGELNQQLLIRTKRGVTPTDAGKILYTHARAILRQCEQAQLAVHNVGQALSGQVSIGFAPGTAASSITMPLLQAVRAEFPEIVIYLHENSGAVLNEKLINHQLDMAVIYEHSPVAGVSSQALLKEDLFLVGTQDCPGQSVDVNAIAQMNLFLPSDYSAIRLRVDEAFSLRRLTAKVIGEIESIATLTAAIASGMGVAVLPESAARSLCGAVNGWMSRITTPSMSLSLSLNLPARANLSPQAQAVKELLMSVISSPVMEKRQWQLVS
U2AF2: U2AF2 148-342 (Homo sapiens, UniProt P26368)
UniProt P26368, sequence (whole entry, looked up): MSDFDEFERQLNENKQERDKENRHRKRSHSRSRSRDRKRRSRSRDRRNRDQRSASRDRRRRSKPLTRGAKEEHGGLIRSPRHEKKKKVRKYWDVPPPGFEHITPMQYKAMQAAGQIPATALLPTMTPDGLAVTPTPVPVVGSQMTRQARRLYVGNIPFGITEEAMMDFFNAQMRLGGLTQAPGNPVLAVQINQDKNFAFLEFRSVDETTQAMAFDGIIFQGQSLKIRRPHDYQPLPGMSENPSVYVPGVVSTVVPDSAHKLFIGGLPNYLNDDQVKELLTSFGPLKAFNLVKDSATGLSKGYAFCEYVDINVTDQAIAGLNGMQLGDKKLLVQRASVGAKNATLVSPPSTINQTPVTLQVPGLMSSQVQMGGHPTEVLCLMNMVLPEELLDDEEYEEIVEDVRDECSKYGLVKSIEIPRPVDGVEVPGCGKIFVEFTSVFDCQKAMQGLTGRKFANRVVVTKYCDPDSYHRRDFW
PHO4: PHO4 1-312 (Saccharomyces cerevisiae, UniProt P07270)
UniProt P07270, sequence (whole entry, looked up): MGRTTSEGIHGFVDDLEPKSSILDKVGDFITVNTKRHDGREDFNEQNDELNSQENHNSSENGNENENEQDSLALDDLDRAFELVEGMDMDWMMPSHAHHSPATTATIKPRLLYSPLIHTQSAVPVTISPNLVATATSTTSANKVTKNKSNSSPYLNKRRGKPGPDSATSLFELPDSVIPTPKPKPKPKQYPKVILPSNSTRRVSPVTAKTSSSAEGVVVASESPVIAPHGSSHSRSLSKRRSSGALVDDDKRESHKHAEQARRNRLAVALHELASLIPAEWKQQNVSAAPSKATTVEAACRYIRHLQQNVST
SPT15 full length assumed: SPT15 full length assumed (Saccharomyces cerevisiae, UniProt P13393)
UniProt P13393, sequence (whole entry, looked up): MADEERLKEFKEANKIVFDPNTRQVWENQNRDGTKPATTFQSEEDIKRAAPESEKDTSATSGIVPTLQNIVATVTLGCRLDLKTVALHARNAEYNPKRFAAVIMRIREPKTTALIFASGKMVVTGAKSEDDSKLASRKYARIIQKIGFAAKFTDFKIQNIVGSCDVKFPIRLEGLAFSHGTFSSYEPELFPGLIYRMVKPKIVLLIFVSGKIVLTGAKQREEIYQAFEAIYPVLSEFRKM
pdhR full length assumed: pdhR full length assumed (Escherichia coli, UniProt P0ACL9)
UniProt P0ACL9, sequence (whole entry, looked up): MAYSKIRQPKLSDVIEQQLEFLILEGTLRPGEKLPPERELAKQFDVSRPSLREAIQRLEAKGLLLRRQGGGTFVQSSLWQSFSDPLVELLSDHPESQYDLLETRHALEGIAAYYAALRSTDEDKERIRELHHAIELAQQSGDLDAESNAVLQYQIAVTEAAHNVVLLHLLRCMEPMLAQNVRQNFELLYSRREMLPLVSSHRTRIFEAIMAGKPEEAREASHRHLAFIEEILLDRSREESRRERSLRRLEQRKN
CIN5 full length assumed: CIN5 full length assumed (Saccharomyces cerevisiae, UniProt P40917)
UniProt P40917, sequence (whole entry, looked up): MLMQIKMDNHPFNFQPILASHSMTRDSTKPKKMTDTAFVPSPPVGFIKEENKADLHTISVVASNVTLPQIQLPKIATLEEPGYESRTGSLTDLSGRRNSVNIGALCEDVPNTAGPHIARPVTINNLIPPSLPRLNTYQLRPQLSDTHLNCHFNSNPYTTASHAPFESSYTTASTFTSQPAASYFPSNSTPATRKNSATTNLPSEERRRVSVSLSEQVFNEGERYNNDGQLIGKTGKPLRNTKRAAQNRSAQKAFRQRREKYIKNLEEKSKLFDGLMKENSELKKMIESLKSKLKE
PARP1: PARP1 1-1014 (Homo sapiens, UniProt P09874)
UniProt P09874, sequence (whole entry, looked up): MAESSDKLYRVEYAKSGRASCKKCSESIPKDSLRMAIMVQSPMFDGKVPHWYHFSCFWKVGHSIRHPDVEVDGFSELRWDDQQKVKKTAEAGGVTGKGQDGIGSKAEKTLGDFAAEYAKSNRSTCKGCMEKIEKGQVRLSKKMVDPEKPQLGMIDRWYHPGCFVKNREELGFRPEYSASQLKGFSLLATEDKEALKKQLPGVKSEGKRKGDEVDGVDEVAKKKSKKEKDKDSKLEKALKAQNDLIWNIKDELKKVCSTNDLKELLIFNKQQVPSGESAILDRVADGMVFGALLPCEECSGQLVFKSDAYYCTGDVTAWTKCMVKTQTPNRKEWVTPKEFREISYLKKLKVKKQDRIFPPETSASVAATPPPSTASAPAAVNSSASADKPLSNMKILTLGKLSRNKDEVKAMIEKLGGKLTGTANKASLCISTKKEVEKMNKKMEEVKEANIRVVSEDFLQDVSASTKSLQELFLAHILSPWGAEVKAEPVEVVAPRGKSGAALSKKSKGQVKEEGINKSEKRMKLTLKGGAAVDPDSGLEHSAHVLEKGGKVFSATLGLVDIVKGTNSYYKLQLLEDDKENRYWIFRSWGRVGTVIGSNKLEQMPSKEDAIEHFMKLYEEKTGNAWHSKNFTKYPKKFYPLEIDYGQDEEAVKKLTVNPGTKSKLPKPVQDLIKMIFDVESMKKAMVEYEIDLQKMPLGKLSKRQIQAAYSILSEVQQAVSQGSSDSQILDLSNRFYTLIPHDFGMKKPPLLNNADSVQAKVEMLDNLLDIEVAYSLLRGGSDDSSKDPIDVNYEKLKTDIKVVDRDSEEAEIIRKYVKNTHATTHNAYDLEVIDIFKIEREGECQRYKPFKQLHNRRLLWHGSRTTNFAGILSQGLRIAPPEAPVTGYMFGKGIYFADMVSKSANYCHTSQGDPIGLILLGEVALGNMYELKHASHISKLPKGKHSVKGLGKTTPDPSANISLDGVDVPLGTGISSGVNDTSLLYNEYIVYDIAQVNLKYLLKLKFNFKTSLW
TOA1/TOA2 1-286; 1-122: TOA1/TOA2 1-286; 1-122 (Saccharomyces cerevisiae)
HMGB3 full length assumed: HMGB3 full length assumed (Homo sapiens, UniProt O15347)
UniProt O15347, sequence (whole entry, looked up): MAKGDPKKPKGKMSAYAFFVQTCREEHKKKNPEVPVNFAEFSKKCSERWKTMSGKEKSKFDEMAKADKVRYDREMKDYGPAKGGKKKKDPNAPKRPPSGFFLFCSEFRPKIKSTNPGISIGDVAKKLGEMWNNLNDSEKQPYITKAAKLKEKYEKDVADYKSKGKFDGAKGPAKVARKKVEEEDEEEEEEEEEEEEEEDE
T1: TOA1/TOA2 1-286; 1-122 (Saccharomyces cerevisiae); chain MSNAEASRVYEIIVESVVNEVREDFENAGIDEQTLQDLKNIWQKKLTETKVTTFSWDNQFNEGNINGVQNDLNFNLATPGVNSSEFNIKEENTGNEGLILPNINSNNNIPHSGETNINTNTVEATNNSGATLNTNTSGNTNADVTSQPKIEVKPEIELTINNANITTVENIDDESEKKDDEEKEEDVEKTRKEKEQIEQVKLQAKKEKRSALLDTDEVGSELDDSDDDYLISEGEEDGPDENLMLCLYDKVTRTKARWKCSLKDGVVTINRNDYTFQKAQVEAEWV; chain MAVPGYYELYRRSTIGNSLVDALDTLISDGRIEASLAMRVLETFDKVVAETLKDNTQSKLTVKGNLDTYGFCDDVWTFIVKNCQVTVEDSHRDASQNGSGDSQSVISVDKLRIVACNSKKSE
T2: MUTYH 1-535 (Homo sapiens); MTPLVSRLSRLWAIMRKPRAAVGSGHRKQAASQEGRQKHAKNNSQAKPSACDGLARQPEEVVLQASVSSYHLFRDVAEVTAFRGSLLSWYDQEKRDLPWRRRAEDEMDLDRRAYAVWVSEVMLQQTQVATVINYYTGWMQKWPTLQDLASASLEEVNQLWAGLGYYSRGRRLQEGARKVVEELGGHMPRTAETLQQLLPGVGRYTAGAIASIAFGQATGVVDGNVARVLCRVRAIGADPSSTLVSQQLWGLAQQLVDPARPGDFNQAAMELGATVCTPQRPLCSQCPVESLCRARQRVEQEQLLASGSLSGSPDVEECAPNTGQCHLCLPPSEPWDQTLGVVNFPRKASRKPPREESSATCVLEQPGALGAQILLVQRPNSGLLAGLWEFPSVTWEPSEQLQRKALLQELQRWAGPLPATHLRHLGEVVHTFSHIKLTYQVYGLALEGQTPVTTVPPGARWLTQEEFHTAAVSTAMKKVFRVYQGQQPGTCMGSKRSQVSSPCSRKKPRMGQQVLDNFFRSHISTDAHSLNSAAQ
UniProt P15976, sequence (whole entry, looked up): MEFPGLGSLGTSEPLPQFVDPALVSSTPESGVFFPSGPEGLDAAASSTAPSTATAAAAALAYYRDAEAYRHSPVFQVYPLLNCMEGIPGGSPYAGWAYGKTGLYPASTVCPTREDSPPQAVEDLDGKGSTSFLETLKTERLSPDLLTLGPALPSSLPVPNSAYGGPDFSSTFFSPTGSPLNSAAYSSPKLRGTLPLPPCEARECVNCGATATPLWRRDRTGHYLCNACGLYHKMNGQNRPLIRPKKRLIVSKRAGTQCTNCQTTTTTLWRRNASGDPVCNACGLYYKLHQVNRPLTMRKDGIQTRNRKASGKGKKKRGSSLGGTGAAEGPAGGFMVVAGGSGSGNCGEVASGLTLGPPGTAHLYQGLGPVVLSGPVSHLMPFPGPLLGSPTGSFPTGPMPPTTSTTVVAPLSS
UniProt P0A9W0, sequence (whole entry, looked up): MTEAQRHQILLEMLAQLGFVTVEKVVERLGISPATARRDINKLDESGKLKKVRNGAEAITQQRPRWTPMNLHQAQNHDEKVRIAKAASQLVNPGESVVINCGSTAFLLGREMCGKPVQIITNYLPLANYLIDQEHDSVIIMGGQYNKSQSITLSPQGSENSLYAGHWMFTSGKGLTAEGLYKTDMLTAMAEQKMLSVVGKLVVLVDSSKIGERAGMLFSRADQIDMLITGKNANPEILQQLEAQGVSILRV
UniProt Q07955, sequence (whole entry, looked up): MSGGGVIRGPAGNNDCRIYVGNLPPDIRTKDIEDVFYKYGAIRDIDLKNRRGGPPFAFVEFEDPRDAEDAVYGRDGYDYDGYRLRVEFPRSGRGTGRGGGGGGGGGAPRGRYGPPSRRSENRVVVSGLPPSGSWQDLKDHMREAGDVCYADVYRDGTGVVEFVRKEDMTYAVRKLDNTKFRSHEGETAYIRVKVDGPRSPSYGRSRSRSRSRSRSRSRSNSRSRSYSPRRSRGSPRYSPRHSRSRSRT
UniProt P07676, sequence (whole entry, unmodified, looked up): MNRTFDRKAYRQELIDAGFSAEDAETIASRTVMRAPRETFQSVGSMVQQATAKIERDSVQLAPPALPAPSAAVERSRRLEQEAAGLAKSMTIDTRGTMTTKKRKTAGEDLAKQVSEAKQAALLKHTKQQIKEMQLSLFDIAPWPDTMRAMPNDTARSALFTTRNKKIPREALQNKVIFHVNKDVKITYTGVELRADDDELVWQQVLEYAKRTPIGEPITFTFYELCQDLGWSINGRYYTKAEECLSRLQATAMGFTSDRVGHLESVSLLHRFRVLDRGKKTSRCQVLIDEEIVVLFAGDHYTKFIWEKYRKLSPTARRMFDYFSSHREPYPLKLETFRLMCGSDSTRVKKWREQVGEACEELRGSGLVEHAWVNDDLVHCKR

Substance	target or system	test	system	setting	scale	quantity	value
CAATACACTGTTATCAGCCACACGTGTCGAGCTACTCGTTCGGTTATCCGGCGGTATGAC (dsDNA)	CBF1	MITOMI	double-stranded DNA, one strand shown	not purified		Kd	250 ± 15 nM
CGCGCGACCACGCTACCACGGCACCACGGGACCACGGTACCACGTCACCACGTGACTCCGGCGGTATGAC (dsDNA)	PHO4 full length assumed (Saccharomyces cerevisiae, UniProt P07270)	MITOMI	double-stranded DNA, one strand shown	not purified		Kd	45 ± 7 nM
GGUGCCUCCCAGUGGUCUUUGUAGACUGCCUGAUGGAGUCACCC (RNA; hairpin with internal loops/bulges)	GATA1 200-319 (Homo sapiens, UniProt P15976)	fluorescence anisotropy	folded RNA			Kd	14 ± 2 nM
colistin	Klebsiella pneumoniae	broth microdilution	clinical isolate RKI-No_80/15			MIC	1 µg/mL
TTGACAAAATTTGAAAGTTGGAAAAATTTTCCAATAAATAGAGGTAGGAATAAAATGGCAA (dsDNA)	nac full length assumed	BLI	double-stranded DNA, one strand shown			Kd	4280 nM
CUGCAAUUUUUUUUUUUUUAUUUUUCAUUUCCAGUA (ssRNA)	U2AF2	ITC	RNA			Kd	291 ± 110 nM
CAATACACTGTTATCAGACACACGTGTAGAGCTACTCGTTCGGTTATCCGGCGGTATGAC (dsDNA)	PHO4	MITOMI	double-stranded DNA, one strand shown	not purified		Kd	197 ± 8 nM
GGCAAGGAGUCUGCACUUCGGUGCUCAGCUUUGCC (RNA; hairpin, internal loop, tetraloop)	LARP6 73-183 G74C/K166A (Homo sapiens, UniProt Q9BRS8)	MST	folded RNA			Kd	204 ± 20.6 nM
CAATACACTGTTATCAGACACACGTGTCGAACTACTCGTTCGGTTATCCGGCGGTATGAC (dsDNA)	PHO4	MITOMI	double-stranded DNA, one strand shown	not purified		Kd	121 ± 3 nM
DNA 1 TGATTTCTTCGAAGAATATACTAAAAAATGAGCAGTCAATTCAATCGGTCC / DNA 2 GGACCGATTGACTTGACTGCTCATTTTTTAGTATATTCTTCGAAGAAATCA (dsDNA; 5'-amino-C6 primer)	SPT15 full length assumed	array	double-stranded DNA	TBP alone		Kd	15.4 ± 0.83 nM
CAATACACTGTTATCAAACACACGTGTCGAGCTACTCGTTCGGTTATCCGGCGGTATGAC (dsDNA)	PHO4	MITOMI	double-stranded DNA, one strand shown	not purified		Kd	150 ± 3 nM
AAGAUAGUU (ssRNA)	U2AF2	sequencing of bound RNA	RNA	motif only		Kd	3560 nM
CAATACACTGTTATCAGACACAGCTGTCGAGCTACTCGTTCGGTTATCCGGCGGTATGAC (dsDNA)	CBF1	MITOMI	double-stranded DNA, one strand shown	not purified		Kd	2970 ± 825 nM
ACAGGGGTGTGGGGACAGGGGTGTGGGG (G-quadruplex DNA (Homo sapiens); intramolecular G4)	IGF2 fragment (Homo sapiens)	SPR	folded DNA	added: IGF-2 45-900 nM		Kd	1.3 nM
GUCUCUUCA (ssRNA)	U2AF2	sequencing of bound RNA	RNA	motif only		Kd	510 nM
AGCGTCACAGACATGAAGTTGGTCAGACCAGATGACCTCGGCAAGTGGCTTAAGACAGGAA (dsDNA)	pdhR full length assumed	BLI	double-stranded DNA, one strand shown			Kd	19.3 nM
UUUUGAGGA (ssRNA)	SRSF1 1-248 (Homo sapiens, UniProt Q07955)	fluorescence polarization	RNA			Kd	400 ± 20 nM
CGCAATTAGATAATTAGCCAATTAGCGAATTAGCTAATTAGGCAATTAGGGAATTCTCCGGCGGTATGAC (dsDNA)	CIN5 full length assumed	MITOMI	double-stranded DNA, one strand shown	not purified		Kd	970 ± 80 nM
RNA 1 CGGCAGGACGUACAUCCCUCCCGGCUCCCCUCCCGCUGGCCUGCCG / RNA 2 CGGCAGGCCAGCGGGAGGGGAGCCGGGAGGGAUGUACGUCCUGCCG (dsRNA)	PARP1	fluorescence polarization	double-stranded RNA	Hill coefficient 1.46		Kd	253 ± 19 nM
CCTGCGGTATTGACACTTGAGGGGCGCGACTACTGACAGATGAGGGGCGCGATCCTTGACACTTGAGGGGCAGAGTGATGACAGATGAGGGGCGCACCTATTGACATTTGAGGGGCTGTCCACAGGCAG (dsDNA)	trfA 98-382 G254D/S267L/R327E (Escherichia coli, UniProt P07676)	SPR	double-stranded DNA, one strand shown			Kd	2.03 nM
CTTAAATCTTGCATTGGTTTTCCTTATATTCAGACTTTGTTATATAAGGCTTTCGTCTTTG (dsDNA)	nac full length assumed	BLI	double-stranded DNA, one strand shown			Kd	8.98 nM
GAUUUCAUU (ssRNA)	U2AF2	sequencing of bound RNA	RNA	motif only		Kd	9730 nM
GCGGUGUAUAGCCUAAUCUUUACCGC (structured RNA)	PARP1	fluorescence polarization	folded RNA	Hill coefficient 0.97		Kd	120 ± 8 nM

Substance	target or system	test	system	setting	scale	quantity	value
DNA TGAGGATGTATATATCTGACGCGCCGGTGGAGC / RNA GCUCCACCGGCGCGUACGAUAUAUACAUCCUCA (DNA:RNA)	TDG 1-410 (Homo sapiens, UniProt Q13569)	EMSA	DNA-RNA hybrid			Kd	67 nM
CTCAGGAATTCCCATAAAGTAATGTGGAGCTCAGTTCAAGTCAATCGGTCC (dsDNA; blunt; 5'-amino-C6 primer)	SPT15 full length assumed	EMSA	double-stranded DNA, one strand shown			Kd	25.2 ± 2.6 nM
AUCAUGUGCCAUAC (ssRNA)	fbf-1 162-573 (Caenorhabditis elegans, UniProt Q9N5M6)	EMSA	RNA			Kd	54 nM
CGCTAAAGTGGCAAAGTGGGAAAGTGGTAAAGTGTCAAAGTGTGAAAGTGTTAAACTCCGGCGGTATGAC (dsDNA)	CIN5 full length assumed	MITOMI	double-stranded DNA, one strand shown	not purified		Kd	24000 ± 19000 nM
CAATACACTGTTATCAGACACACGTGCCGAGCTACTCGTTCGGTTATCCGGCGGTATGAC (dsDNA)	CBF1	MITOMI	double-stranded DNA, one strand shown	not purified		Kd	104 ± 5 nM
GTTCCTGAAGGGGGGGCGGGGTGGGTATAAAAGGGTCAAGTCAATCGGTCC (dsDNA; 5'-amino-C6 primer)	T1, TOA1/TOA2 1-286; 1-122 (Saccharomyces cerevisiae)	array	double-stranded DNA, one strand shown	TFIIA alone		Kd	100 ± 39.2 nM
AUCCUUUUA (ssRNA)	U2AF2	sequencing of bound RNA	RNA	motif only		Kd	9330 nM
CCATCGCTACC (dsDNA; blunt, trans-N2-BPDE-dG at position 6)	HMGB3 full length assumed	fluorescence anisotropy	double-stranded DNA, one strand shown			Kd	0.35 ± 0.05 nM
CGATCATGGAGCCACGAGCTCCCGTTACAG / CTGTAACGGGAGCTNGTGGCTCCATGATCG (dsDNA; blunt, 8-oxoG opposite THF abasic)	T2, MUTYH 1-535 (Homo sapiens)	EMSA				Kd	< 0.05 nM
AGCGTCACAGACATGAAAATGGTCTGACCATTTGACCTCGGCAAGTGGCTTAAGACAGGAA (dsDNA)	pdhR full length assumed	BLI	double-stranded DNA, one strand shown			Kd	1.35 nM
TTGTGCTACGGTCTCTCCACCCCCTGCTGCTGCTGTCAAGTCAATCGGTCC (dsDNA; 5'-amino-C6 primer)	SPT15 full length assumed	array	double-stranded DNA, one strand shown	TBP alone		Kd	1.81 ± 0.08 nM
AUUAUUUGU (ssRNA)	U2AF2	sequencing of bound RNA	RNA	motif only		Kd	2960 nM
ATGGCGGGCTATGATCCTAT (dsDNA; blunt, N2-nBu-dG at position 7)	HMGB3 full length assumed	fluorescence anisotropy	double-stranded DNA, one strand shown			Kd	7 ± 1 nM
GTTCAATTCGAATCAATATGTGATTGGTTTTGATTAATCCTGACACTATTTTTTCAGGAAG (dsDNA)	ulaR full length assumed (Escherichia coli, UniProt P0A9W0)	BLI	double-stranded DNA, one strand shown			Kd	10.7 nM
TCCTGAAGGGGCGCCCTAGCTTGGTCCTATCGTCGTCAAGTCAATCGGTCC (dsDNA; 5'-amino-C6 primer)	T1, TOA1/TOA2 1-286; 1-122 (Saccharomyces cerevisiae)	array	double-stranded DNA, one strand shown	TFIIA alone		Kd	108 ± 70.5 nM
TTCTGATCACCGACATGAAAGCTAACAGGAACGTTAAGTGCCTTAGCTCCGGCTACCGTGC (dsDNA)	nac full length assumed	BLI	double-stranded DNA, one strand shown			Kd	3220 nM
TTTGCGTGGGCTGTGGTGCTTT (ssDNA)	traI 1-569 (Escherichia coli, UniProt P14565)	fluorescence titration	single-stranded DNA			Kd	1300 ± 800 nM
GGGAGCAGGAGAGAGGUCAGAUGAACAAUAAAAAUUGUGCAAGCCUUAGGCUCCCUAUGCGUGCUAGUGUGA (ssRNA; 2'-fluoro pyrimidines)	TGM2 2-687 (Homo sapiens, UniProt P21980)	SPR	RNA	added: MgCl2 5 mM	higher = more binding	relative binding	-13.4 RU
CCUCUAGAA (ssRNA)	U2AF2	sequencing of bound RNA	RNA	motif only		Kd	3910 nM
GCAGUAGGGUGAGGGUGUUGGCAGGGAGCGCCCUCCCCCAUAGUGU (RNA; multiple G-quadruplex hairpins)	PARP1	fluorescence polarization	folded RNA	Hill coefficient 0.50		Kd	28.6 ± 4.7 nM
CAATACACTGTTATCAGACACACGTGTCGACCTACTCGTTCGGTTATCCGGCGGTATGAC (dsDNA)	CBF1	MITOMI	double-stranded DNA, one strand shown	not purified		Kd	155 ± 7 nM
CUUCUCCAU (ssRNA)	U2AF2	sequencing of bound RNA	RNA	motif only		Kd	9080 nM
ATTTTTTAGTCCTATATATACTCGCTCTGCACTTGTCAAGTCAATCGGTCC (dsDNA; 5'-amino-C6 primer)	SPT15 full length assumed	array	double-stranded DNA, one strand shown	TBP alone		Kd	35.2 ± 3.05 nM
